Results of several laboratories.
Protocols differ between the studies behind these lines. Values joined by “and” are separate records of one study, mostly repeats; a detail may differ. Numbers after ± are the reported error.
UniProt P51575, sequence (whole entry, unmodified, looked up): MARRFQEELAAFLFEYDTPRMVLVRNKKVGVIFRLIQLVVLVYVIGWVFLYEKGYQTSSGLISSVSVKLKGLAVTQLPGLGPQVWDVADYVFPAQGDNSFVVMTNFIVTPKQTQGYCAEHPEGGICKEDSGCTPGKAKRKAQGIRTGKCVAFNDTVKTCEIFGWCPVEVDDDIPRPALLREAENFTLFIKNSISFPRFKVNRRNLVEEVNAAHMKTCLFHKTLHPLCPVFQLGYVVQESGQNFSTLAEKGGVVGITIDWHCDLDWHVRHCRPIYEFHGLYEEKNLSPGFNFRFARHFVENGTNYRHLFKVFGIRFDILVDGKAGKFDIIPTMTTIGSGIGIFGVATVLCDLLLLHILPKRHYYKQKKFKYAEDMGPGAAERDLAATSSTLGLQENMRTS
UniProt O76090, sequence (whole entry, unmodified, looked up): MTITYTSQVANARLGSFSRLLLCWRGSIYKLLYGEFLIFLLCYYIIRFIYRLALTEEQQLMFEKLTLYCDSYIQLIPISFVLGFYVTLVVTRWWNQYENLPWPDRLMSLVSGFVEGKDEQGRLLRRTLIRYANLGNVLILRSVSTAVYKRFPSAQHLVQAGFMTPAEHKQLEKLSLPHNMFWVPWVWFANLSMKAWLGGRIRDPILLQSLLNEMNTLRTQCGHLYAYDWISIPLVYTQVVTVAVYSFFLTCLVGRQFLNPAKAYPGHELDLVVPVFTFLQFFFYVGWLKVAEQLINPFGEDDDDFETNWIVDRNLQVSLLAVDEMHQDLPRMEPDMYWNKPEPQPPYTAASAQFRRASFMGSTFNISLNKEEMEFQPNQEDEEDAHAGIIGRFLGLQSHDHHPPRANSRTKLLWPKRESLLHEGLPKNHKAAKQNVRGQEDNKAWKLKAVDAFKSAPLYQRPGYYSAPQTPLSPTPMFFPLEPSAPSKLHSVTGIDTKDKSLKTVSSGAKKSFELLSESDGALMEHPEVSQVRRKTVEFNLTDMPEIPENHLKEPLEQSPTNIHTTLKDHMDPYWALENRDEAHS
UniProt P60891, sequence (whole entry, looked up): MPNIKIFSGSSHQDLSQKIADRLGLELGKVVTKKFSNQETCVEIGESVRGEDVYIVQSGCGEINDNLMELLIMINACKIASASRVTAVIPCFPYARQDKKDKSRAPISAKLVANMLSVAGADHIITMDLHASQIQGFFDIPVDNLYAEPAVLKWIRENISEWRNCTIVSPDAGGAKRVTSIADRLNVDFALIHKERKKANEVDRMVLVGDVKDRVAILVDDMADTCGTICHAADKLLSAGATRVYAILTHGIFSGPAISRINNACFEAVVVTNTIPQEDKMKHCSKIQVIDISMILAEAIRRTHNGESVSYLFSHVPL
UniProt P11388, sequence (whole entry, looked up): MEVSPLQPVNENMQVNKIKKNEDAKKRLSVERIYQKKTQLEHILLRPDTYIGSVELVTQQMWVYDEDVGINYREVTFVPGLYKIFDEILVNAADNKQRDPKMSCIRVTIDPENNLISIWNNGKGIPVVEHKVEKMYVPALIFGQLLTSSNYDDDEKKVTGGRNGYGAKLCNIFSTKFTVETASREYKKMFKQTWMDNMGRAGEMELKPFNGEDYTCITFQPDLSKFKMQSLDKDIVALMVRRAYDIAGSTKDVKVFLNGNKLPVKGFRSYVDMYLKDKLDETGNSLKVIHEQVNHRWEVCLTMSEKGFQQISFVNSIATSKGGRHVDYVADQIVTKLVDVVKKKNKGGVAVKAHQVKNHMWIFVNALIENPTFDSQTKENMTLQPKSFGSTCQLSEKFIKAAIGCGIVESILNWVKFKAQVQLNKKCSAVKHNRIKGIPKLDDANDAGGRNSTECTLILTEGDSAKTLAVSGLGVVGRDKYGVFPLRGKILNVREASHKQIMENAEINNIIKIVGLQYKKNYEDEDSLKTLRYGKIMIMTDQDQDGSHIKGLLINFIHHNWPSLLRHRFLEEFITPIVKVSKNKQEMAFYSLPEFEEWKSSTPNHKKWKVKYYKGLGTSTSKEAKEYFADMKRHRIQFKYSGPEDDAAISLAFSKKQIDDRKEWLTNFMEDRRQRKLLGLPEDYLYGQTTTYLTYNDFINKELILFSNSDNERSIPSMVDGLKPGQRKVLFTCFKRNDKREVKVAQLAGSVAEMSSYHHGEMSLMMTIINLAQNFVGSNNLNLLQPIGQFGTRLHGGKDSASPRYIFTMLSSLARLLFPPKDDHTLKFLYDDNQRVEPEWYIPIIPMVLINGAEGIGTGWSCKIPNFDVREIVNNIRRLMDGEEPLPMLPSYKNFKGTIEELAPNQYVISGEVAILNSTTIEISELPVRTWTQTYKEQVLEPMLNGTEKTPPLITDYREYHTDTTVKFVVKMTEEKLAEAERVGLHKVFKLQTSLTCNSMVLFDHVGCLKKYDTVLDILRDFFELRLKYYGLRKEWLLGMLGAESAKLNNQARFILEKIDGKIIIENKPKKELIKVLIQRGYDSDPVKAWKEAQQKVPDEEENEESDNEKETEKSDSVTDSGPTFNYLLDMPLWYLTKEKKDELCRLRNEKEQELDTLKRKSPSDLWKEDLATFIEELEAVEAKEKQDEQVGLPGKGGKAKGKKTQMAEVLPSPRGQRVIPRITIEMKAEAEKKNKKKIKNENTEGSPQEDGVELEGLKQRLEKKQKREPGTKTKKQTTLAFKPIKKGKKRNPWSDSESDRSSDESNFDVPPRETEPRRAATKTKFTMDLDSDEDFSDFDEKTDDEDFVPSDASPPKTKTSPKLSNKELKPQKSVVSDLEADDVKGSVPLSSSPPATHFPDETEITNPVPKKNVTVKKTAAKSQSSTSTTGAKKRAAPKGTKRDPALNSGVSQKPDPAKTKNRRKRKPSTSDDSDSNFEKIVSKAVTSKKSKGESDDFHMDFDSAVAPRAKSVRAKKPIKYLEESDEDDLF
UniProt P00519, sequence (whole entry, unmodified, looked up): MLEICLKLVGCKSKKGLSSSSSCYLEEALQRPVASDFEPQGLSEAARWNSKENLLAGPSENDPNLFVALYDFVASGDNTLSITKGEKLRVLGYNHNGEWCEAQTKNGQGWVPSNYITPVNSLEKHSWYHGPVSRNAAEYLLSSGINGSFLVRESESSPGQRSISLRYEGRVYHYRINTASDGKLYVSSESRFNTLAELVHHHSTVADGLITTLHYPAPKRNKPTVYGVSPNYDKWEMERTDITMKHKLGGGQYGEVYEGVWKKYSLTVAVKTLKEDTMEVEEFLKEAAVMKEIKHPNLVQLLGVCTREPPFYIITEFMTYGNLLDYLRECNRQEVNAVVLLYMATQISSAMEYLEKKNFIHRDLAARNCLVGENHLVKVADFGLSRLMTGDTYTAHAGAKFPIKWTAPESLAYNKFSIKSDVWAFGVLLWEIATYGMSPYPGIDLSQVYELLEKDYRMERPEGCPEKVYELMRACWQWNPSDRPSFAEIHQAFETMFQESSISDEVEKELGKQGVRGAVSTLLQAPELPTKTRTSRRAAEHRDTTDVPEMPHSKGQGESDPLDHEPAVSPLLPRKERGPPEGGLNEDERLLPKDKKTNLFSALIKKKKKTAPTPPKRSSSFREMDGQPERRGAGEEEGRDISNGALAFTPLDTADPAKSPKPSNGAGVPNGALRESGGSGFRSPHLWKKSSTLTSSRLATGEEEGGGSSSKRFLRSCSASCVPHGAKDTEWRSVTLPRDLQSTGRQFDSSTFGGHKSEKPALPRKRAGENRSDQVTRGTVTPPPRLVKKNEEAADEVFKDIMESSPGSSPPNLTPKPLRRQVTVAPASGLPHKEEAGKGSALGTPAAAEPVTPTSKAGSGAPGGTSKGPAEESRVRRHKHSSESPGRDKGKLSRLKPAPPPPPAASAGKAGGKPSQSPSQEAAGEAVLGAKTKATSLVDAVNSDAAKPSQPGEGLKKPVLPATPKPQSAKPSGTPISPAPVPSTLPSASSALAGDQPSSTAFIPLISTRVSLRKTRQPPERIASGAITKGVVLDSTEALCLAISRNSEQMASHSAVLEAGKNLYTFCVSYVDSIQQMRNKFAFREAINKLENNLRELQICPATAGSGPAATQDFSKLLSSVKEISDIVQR
UniProt P25963, sequence (whole entry, unmodified, looked up): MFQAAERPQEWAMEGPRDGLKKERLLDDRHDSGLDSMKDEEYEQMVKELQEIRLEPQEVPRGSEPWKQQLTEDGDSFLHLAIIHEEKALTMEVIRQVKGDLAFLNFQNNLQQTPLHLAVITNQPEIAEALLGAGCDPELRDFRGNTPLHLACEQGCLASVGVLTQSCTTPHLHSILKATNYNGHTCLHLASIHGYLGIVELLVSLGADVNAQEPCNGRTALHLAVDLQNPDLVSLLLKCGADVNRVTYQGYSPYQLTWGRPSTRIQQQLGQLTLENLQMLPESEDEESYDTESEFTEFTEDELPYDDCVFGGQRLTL
UniProt P63138, sequence (whole entry, looked up): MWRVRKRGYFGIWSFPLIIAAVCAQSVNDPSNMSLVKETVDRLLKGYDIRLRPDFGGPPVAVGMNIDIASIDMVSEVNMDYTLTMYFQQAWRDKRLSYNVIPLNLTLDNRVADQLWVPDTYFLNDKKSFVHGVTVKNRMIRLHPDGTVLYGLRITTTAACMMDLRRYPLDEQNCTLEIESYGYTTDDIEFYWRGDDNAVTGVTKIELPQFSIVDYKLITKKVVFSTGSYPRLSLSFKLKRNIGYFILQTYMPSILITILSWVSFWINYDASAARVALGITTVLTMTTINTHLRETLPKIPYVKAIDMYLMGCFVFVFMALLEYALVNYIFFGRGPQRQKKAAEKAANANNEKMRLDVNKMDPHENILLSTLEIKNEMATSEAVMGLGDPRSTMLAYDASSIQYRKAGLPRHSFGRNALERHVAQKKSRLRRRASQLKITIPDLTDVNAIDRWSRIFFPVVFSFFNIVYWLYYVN
UniProt Q01105, sequence (whole entry, looked up): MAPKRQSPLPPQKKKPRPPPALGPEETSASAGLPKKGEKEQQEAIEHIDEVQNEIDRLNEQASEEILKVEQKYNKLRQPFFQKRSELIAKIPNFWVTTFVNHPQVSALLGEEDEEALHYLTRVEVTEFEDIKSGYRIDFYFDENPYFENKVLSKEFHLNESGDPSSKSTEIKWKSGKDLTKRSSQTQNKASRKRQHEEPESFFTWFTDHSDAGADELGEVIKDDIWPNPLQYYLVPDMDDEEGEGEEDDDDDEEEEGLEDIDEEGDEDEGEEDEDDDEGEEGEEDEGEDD

SMILES | target | assay | test system | conditions | how to read | measurement | value
NC/C(=C\F)COc1cccc(Cn2c(=S)[nH]c(=O)c3[nH]cnc32)c1 | Myeloperoxidase (MPO, Homo sapiens, UniProt P05164) | H2O2 consumption, inhibitor, H2O2 electrode |  | 10 µM, 0.1 s |  | H2O2 concentration | -0.762 µM
O=c1nc(SCc2cc(F)cc(C(F)(F)F)c2)nc(SCc2ccc3nc(Cl)ccc3c2)[nH]1 | DNA topoisomerase 2-alpha (TOP2A, Homo sapiens, UniProt P11388) | ATPase activity |  | 7.8 µM, together with: ATP 2 mM |  | ATP hydrolysis rate | 0.342 µM/min and 2.52 µM/min
O=C1C[C@@H](c2ccccc2)Oc2cc(O)cc(O)c21 | Aryl hydrocarbon receptor (Danio rerio, UniProt Q9YGV3) | reporter gene, agonist, luciferase reporter | ZF-4 | 370.37 µM | baseline: vehicle control | fold change | 1.36
O=C(COP(=O)(O)O)[C@@H](O)[C@H](O)[C@H](O)COP(=O)(O)O | Ribose-phosphate pyrophosphokinase 1 (PRPS1, Homo sapiens, UniProt P60891) | thermal proteome profiling | HepG2 cell lysate | concentration not given, 57 over 37 °C | baseline: compound over control | thermal stability ratio | 2.78 and 1.65 and 2.95
Nc1ccc(C(=O)O)cc1 | BEST1, with wild-type BEST1 (Homo sapiens, UniProt O76090, A243T) | whole-cell patch clamp | HEK293 co-expressing WT and A243T mutant | concentration not given, membrane potential 0 mV |  | current density | -0.09 pA/pF and 0.04 pA/pF and 0 pA/pF and 0.16 pA/pF and -0.13 pA/pF and -0.03 pA/pF
c1cnn2ncc(-c3ccnc(N4CCC45COC5)n3)c2c1 | Tyrosine-protein kinase ABL1 (ABL1, Homo sapiens, UniProt P00519, T315I) | KINOMEscan |  | 1 µM | baseline: control | remaining binding | 74%
Nc1ncnc2c1ncn2[C@@H]1O[C@H](COP(=O)(O)OP(=O)(O)O)[C@@H](O)[C@H]1O | Cell cycle histidine kinase CckA, CA domain (Caulobacter vibrioides, UniProt Q9X688) | binding, ITC |  | together with: without c-di-GMP |  | ΔS | -2.62 cal/mol/K
Nc1ncnc2c1ncn2[C@@H]1O[C@H](COP(=O)(O)CP(=O)(O)OP(=O)(O)O)[C@@H](O)[C@H]1O | P2X purinoceptor 1 (P2RX1, Homo sapiens, UniProt P51575, M214A) | saturation binding | HEK293 | 130 nM |  | specific binding | 1740 CCPM and 1720 CCPM and 3180 CCPM
CCCCCCCCCCCCC/C=C/[C@@H](O)[C@H](CO)NC(=O)CCCCCCCCCCCCCCCCCCC | Protein SET (SET, Homo sapiens, UniProt Q01105) | lipid binding, GFP pull-down LC-MS/MS | A549 overexpressing GFP-tagged protein | ER-targeted construct, unit not given | baseline: vector-transfected cells | bound endogenous lipid | 4.5
Cn1c2c(c3ccc(Cl)c(Cl)c31)C(C#N)C(C)(C)NC2=O (stereo not drawn) | Serine/threonine-protein kinase VRK3 (VRK3, Homo sapiens, UniProt Q8IV63) | thermal stability, thermal shift |  | 10 µM | higher = stronger binding | delta Tm | -0.2 °C
CCCCNc1c(C(=O)OCC)c(C)nc2c1cnn2CC.Cl | GABA-A receptor; alpha-1/beta-2/gamma-2 (Rattus norvegicus, UniProt P18508+P62813+P63138) | chloride current, agonist, whole-cell patch clamp | HEK293 expressing GABAA | 30 s | baseline: maximum | maximal response | 49%
CN1CCN(c2cc(-c3ccncc3)c(-c3ccc4ccccc4c3)nn2)CC1 | N-formyl peptide receptor 2 (FPR2, Homo sapiens, UniProt P25090) | agonist, FLIPR |  | 12.5 µM |  | activation | -0.3%
CC[C@H](C)[C@H](NC(=O)[C@H](CO)NC(=O)[C@H](CCCCN)NC(=O)[C@H](Cc1ccccc1)NC(=O)[C@@H](NC(=O)[C@H](CCC(=O)O)NC(=O)[C@H](Cc1ccc(O)cc1)NC(=O)[C@@H](NC(=O)[C@H](CCCNC(=N)N)NC(=O)[C@H](CCCCN)NC(=O)[C@H](CCCNC(=N)N)NC(=O)[C@H](CCCCN)NC(=O)[C@H](CCC(=O)O)NC(=O)[C@H](CCC(=O)O)NC(=O)[C@@H](NC(=O)[C@H](CCCNC(=N)N)NC(=O)[C@H](Cc1c[nH]cn1)NC(=O)[C@H](CCCNC(=N)N)NC(=O)[C@H](CC(=O)O)NC(=O)[C@H](CC(=O)O)NC(=O)[C@@H](NC(=O)[C@H](CC(=O)O)NC(=O)[C@@H]1CCCN1C(=O)[C@@H](N)CC(C)C)[C@@H](C)O)[C@@H](C)CC)[C@@H](C)O)[C@@H](C)O)C(=O)N[C@@H](C)C(=O)N[C@@H](CCCCN)C(=O)N[C@@H](CCCCN)C(=O)N[C@@H](CO)C(=O)N1CCC[C@H]1C(=O)N[C@@H](Cc1ccccc1)C(=O)N[C@@H](CC(N)=O)C(=O)NCC(=O)N1CCC[C@H]1C(=O)O | NF-kappa-B inhibitor alpha (Homo sapiens, UniProt P25963) | binding, ITC |  | pH 7.5, 293 K, 50 mM NaCl |  | -TΔS | -5.1 ± 0.04 kcal/mol
CC[C@@H]1[C@H](F)C(=O)N[C@@H]1COc1nccc2cc(C(N)=O)c(OC)cc12 | Aurora kinase A (AURKA, Homo sapiens, UniProt O14965) | ATP probe binding, KiNativ profiling, refers to: Lys2 probe site | THP-1 cell lysate | 0.2 mM |  | inhibition | 2.8%
COc1cc(Nc2ncc3c(n2)-c2ccc(Cl)cc2C(c2c(F)cccc2OC)=NC3)ccc1C(=O)O | TBK1 | kinase activity |  | 1 µM |  | remaining activity | 39%

Excerpt of the above:
SMILES | target | assay | test system | conditions | how to read | measurement | value
Nc1ncnc2c1ncn2[C@@H]1O[C@H](COP(=O)(O)OP(=O)(O)O)[C@@H](O)[C@H]1O | Cell cycle histidine kinase CckA, CA domain (Caulobacter vibrioides, UniProt Q9X688) | binding, ITC |  | together with: without c-di-GMP |  | ΔS | -2.62 cal/mol/K
